Assay results collected from several papers.
Every numbered part comes from another study and shows a few of its results, in no order. Substitutions count along the parent as printed.

Study 1 — method: universal PBM; form: double-stranded DNA, one strand shown; sample: in vitro; concentration: 600 nM; reading: higher = stronger binding
Target: Sal-like protein 4, full length isoform A (SALL4, Homo sapiens, UniProt Q9UJQ4, residues 1-1053)
Chain of UniProt Q9UJQ4 (whole entry, looked up): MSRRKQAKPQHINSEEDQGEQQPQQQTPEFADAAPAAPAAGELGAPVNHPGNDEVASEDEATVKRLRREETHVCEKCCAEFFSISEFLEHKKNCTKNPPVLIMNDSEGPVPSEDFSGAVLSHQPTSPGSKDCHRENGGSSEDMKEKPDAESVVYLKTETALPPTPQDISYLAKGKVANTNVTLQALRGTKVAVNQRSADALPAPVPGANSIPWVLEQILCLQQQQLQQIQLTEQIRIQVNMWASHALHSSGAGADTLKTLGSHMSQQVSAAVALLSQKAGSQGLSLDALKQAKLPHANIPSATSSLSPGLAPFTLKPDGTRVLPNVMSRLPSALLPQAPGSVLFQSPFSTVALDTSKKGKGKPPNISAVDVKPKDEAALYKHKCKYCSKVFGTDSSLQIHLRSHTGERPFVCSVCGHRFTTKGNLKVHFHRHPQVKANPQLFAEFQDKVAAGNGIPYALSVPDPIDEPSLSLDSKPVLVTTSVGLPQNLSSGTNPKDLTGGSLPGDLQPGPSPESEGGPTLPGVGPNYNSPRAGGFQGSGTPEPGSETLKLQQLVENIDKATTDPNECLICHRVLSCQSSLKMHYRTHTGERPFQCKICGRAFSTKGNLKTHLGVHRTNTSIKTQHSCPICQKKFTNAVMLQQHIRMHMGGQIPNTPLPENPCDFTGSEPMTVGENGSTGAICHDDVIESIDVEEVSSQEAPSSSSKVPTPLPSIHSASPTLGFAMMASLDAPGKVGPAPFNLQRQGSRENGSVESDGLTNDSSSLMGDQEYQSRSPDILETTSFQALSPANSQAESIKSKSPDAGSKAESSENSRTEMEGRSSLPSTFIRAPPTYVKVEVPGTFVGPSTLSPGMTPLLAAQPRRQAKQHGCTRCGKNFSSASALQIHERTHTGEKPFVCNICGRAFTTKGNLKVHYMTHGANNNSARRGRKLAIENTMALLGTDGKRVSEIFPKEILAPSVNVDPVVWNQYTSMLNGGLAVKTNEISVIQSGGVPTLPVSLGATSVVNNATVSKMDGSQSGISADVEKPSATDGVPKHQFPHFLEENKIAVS
Setting: 8-mer, flanks averaged, mean of replicates
`GTCACCAC` gave an E-score of -0.214.
`GGTTTTTA` gave an E-score of 0.11.
`ACGCGCGG` has an E-score of -0.349.
For `ATGGGCTG`, the E-score was -0.159.
With `CGATACAC` the E-score was 0.079.
With `CCTGTACC` the E-score was -0.242.
`ATATTGCA` gave an E-score of 0.357.
With `CAACTAAA` the E-score was 0.166.
`GCCCATCC` has an E-score of -0.175.
With `AGGAATCA` the E-score was 0.159.
`GAATAGGC` gave an E-score of -0.0135.
For `TCGTTGAA`, the E-score was 0.129.
The E-score of `CACTGCGA` is reported as -0.0326.
`CACGCCGG` gave an E-score of -0.281.
With `CGATGCGA` the E-score was -0.17.
`CGGGAAGA` has an E-score of -0.0635.
For `AGTGCTTG`, the E-score was 0.106.

Study 2 — target: OGT, full length, His-tagged (human); method: phage display, sequencing; sample: in vitro; concentration: 1 µg OGT; relative to: input library; reading: higher = stronger binding; parent: peptide; TAPFYPPAYQIQVFK
Setting: single substitutions, 15-mer displayed peptide, unchanged parent 19.6
The fold enrichment of `TAPFYPPAYQIQVHK [F14H]` is reported as 26.7 fold.
`TAPFYPRAYQIQVFK [P7R]` gave a fold enrichment of 1.37 fold.
`TAPFYPPAYQLQVFK [I11L]` has a fold enrichment of 1.25 fold.
`TAPFYHPAYQIQVFK [P6H]` has a fold enrichment of 0.907 fold.
With `TAPFIPPAYQIQVFK [Y5I]` the fold enrichment was 0.952 fold.
For `TAPFYPPAYQDQVFK [I11D]`, the fold enrichment was 0.412 fold.
The fold enrichment of `TAPFYPPADQIQVFK [Y9D]` is reported as 0.555 fold.
The fold enrichment of `TAPPYPPAYQIQVFK [F4P]` is reported as 7.8 fold.
`TAPFYPPAYQIFVFK [Q12F]` has a fold enrichment of 10 fold.
`TAPFYPAAYQIQVFK [P7A]` has a fold enrichment of 1.2 fold.
`TAPFYIPAYQIQVFK [P6I]` has a fold enrichment of 1.13 fold.
With `TAPFYPMAYQIQVFK [P7M]` the fold enrichment was 1.54 fold.
The fold enrichment of `TAPFYPPAYQITVFK [Q12T]` is reported as 7.32 fold.
For `TAPKYPPAYQIQVFK [F4K]`, the fold enrichment was 5.48 fold.
With `TAPFYPPAYQIVVFK [Q12V]` the fold enrichment was 5.57 fold.
`TSPFYPPAYQIQVFK [A2S]` has a fold enrichment of 8.86 fold.

Study 3 — method: protein-binding microarray; form: double-stranded DNA, one strand shown; sample: in vitro; concentration: not given; reading: higher = stronger binding
Target: Transcription factor Sp1 (SP1, Homo sapiens, UniProt P08047, residues 1-785, full length assumed)
Chain of UniProt P08047 (whole entry, looked up): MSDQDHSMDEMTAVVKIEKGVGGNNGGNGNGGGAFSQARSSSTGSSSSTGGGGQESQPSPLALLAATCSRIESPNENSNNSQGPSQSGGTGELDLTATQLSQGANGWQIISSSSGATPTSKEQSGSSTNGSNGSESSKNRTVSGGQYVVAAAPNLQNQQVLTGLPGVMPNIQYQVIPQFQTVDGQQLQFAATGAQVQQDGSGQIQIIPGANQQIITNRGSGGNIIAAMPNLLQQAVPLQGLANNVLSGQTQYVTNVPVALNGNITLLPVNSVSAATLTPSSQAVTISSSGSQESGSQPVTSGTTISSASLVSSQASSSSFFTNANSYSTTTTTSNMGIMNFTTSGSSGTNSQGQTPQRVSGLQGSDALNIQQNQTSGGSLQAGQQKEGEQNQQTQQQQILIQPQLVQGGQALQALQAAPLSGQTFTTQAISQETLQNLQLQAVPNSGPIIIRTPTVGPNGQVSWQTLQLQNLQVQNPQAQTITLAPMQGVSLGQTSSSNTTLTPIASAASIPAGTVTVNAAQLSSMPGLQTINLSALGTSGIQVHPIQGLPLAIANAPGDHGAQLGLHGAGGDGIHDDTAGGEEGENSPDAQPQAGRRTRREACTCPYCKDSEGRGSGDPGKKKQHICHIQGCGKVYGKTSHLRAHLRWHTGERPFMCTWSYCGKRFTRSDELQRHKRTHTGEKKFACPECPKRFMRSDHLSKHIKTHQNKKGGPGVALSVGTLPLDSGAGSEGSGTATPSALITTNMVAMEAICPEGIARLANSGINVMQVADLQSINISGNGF
Setting: k-mer, scored over probes, only values ≥0.25
The E-score of `CCGCCCAC` is reported as 0.493.
`AGTGGGGA` has an E-score of 0.301.
With `ACCCACTG` the E-score was 0.294.
`AATATATA` gave an E-score of 0.285.
For `CACCCACA`, the E-score was 0.301.
`CCCCCTCC` has an E-score of 0.377.
The E-score of `CTCCGCCC` is reported as 0.458.
`AACCCCTC` has an E-score of 0.328.
The E-score of `CCTATCAC` is reported as 0.266.
With `ACTAACAT` the E-score was 0.265.
The E-score of `GTGTGTTA` is reported as 0.29.
The E-score of `ACCCGCCC` is reported as 0.485.
The E-score of `GGTAAACA` is reported as 0.258.

Study 4 — method: DHFR PCA, deep sequencing; sample: yeast; with: (+)-ABA 710 µM; relative to: wild-type fitted maximum; reading: higher = stronger binding
Target: ABI1, truncated, D143A, DHFR fusion (Arabidopsis thaliana)
Setting: methotrexate growth selection, single substitutions
Parent: PYL1, truncated, DHFR fusion (Arabidopsis thaliana); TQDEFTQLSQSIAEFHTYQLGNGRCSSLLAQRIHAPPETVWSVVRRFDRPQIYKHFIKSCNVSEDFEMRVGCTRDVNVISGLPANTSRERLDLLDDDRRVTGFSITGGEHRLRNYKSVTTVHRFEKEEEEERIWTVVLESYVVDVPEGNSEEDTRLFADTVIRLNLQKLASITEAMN; partner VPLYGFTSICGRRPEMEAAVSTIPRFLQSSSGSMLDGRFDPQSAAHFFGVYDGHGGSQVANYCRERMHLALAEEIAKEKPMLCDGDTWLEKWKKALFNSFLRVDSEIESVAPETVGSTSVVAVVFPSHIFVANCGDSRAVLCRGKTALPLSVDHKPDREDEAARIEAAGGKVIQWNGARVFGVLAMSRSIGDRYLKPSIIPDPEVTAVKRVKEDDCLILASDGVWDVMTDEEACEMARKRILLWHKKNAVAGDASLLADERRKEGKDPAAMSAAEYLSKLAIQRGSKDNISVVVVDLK
`P83I`: “relative binding score” 11.3%.
`T154Y` — result for “relative binding score”: 15.5%.
`K54W`: “relative binding score” -8.3%.
Under “relative binding score”, `I57T` is recorded as 77.7%.
`M176S`: “relative binding score” 103%.
Under “relative binding score”, `N77C` is recorded as 105%.
Under “relative binding score”, `Y53D` is recorded as 4.35%.
Under “relative binding score”, `T39E` is recorded as 103%.
`L20C` — result for “relative binding score”: 101%.
`N149E`: “relative binding score” 67.3%.
`K116V` — result for “relative binding score”: 82.5%.
`I172F`: “relative binding score” 95.8%.
Under “relative binding score”, `Q2L` is recorded as 96%.
`T119Q` — result for “relative binding score”: 97.2%.
`T120M`: “relative binding score” 24.2%.
`E67M` — result for “relative binding score”: 98.2%.
`N61R` — result for “relative binding score”: 106%.
For `R111C`, “relative binding score” read 77%.
Under “relative binding score”, `V44T` is recorded as 74.4%.
For `E147S`, “relative binding score” read 97.2%.
For `L112H`, “relative binding score” read -40.7%.
`V78P` — result for “relative binding score”: 86.6%.
Under “relative binding score”, `S63K` is recorded as 101%.
`T120H`: “relative binding score” 25.2%.
`R113D`: “relative binding score” 101%.

Study 5 — organism: Saccharomyces cerevisiae; observed: peptide binding; method: yeast competitive growth sequencing; form: peptide; strain: cyclin F-Cln2 fusion; concentration: concentration not given; setting: tiling library, Cln2-subtracted; reading: direction not given
`EPKTLFLGAGDFQF` has a binding score of 0.768.
`TSSAQRRLEIPSGGAD` gave a binding score of 1.62.
The binding score of `GPVKLEFDVSDGAT` is reported as 1.15.
`LFVPQRKLEVSTEDVH` gave a binding score of 0.715.
`ALLRRLQDVANDRGSH` has a binding score of 0.426.
`SDSTVTKLDFDLEP` has a binding score of -0.0183.
For `KRNLLNEFDRII`, the binding score was 2.25.
`IPDRSTKPVVFSPT` has a binding score of -0.0998.
The binding score of `NCKKRRALDFLSRLPL` is reported as 1.53.
The binding score of `PKNAKRNLSSEFAN` is reported as 0.36.
The binding score of `ARKRLELGNLGNPQ` is reported as 1.97.
With `PPKPLKKLRFDIEGSD` the binding score was 0.716.
`QDYERRLLRQIVIQNE` has a binding score of -0.17.
For `VLLKRLQDVVSERANH`, the binding score was 0.301.
For `RKLDLEGIGR`, the binding score was 3.63.
`PHKTFRKLRLFDTPHT` has a binding score of 1.27.
With `KRCATPVIIDEILPSK` the binding score was -0.0794.

A few entries again (study 5):
`TSSAQRRLEIPSGGAD` gave a binding score of 1.62.
The binding score of `GPVKLEFDVSDGAT` is reported as 1.15.
`LFVPQRKLEVSTEDVH` gave a binding score of 0.715.
`ALLRRLQDVANDRGSH` has a binding score of 0.426.
`SDSTVTKLDFDLEP` has a binding score of -0.0183.
For `KRNLLNEFDRII`, the binding score was 2.25.
`IPDRSTKPVVFSPT` has a binding score of -0.0998.
The binding score of `NCKKRRALDFLSRLPL` is reported as 1.53.
The binding score of `PKNAKRNLSSEFAN` is reported as 0.36.
The binding score of `ARKRLELGNLGNPQ` is reported as 1.97.
With `PPKPLKKLRFDIEGSD` the binding score was 0.716.
`QDYERRLLRQIVIQNE` has a binding score of -0.17.
For `VLLKRLQDVVSERANH`, the binding score was 0.301.
For `RKLDLEGIGR`, the binding score was 3.63.
